Results from different studies.
Compare with care: the assays were run in different laboratories. Numbers after ± are the reported error.

| SMILES | test | system | setting | how to read | measurement | value |
| --- | --- | --- | --- | --- | --- | --- |
| COc1ccc([C@@H](O)c2cc(-c3ncnc4cc(N5CCOCC5)ccc34)c(F)cc2Cl)nn1 | – | locally advanced rectal cancer patients | 50 mg, with: capecitabine and radiotherapy | – | diarrhoea TEAE incidence | 100% |
| O=C(Nc1cnccc1Cl)N1CCN(Cc2ccc3c(c2)OC(F)(F)O3)CC1 | multiple ascending dose | young women | 100 mg, treatment-emergent adverse events | – | injection site pain incidence | 0% |
| CC(C)(C(=O)N1CCOc2c(C#N)cncc2C1)C(F)F | – | human, both sexes, plasma | oral, 15 mg twice daily, 14 days, multiple ascending dose | baseline: day 14 over day 1 | accumulation ratio Cmax | 1.24 |
| Cc1nc2cccc(OCC(C)(C)C(=O)NC(C)C)c2c(N)c1C(=O)O | – | male Swiss albino CD-1 mouse, bone marrow | oral, 500 mg/kg, 24 h | – | micronucleated NCE per 2000 PCE | 0.9 |
| CC(C)n1c(Nc2cccnc2)nc2cnc(Nc3ccc(N4CCN(C)CC4)cc3)nc21 | item: hemoglobin increased | healthy male subjects | oral, 150 mg, study, with: rifampin | – | subjects with adverse event | 0% |
| COc1ccc(C(=O)O)cc1OS(=O)(=O)O | – | human, cerebrospinal fluid | concentration not given, mean | – | CSF concentration | 18.8 nM |
| O=C1CCc2ccc(OCCCCN3CCN(c4cccc(Cl)c4Cl)CC3)cc2N1 | – | CYP2D6 poor metabolizers | concentration not given, genotype-based phenotype, long-acting oral or depot | – | gastrointestinal symptom frequency | 5.3% |
| O=c1ccc2ccc(O)cc2o1 | – | rat | – | – | scaled intrinsic clearance | 877 mL/min/kg |
| CCn1ncc2c1-c1cnc(N)c(c1)O[C@H](C)c1cc(F)ccc1-c1nn(C)nc1C2 | – | female athymic nude mice, sample B PDX | oral, 5 mg/kg twice daily for 21 days, 1 h | – | unbound plasma concentration | 325 ± 24 nM |
| Cn1cc(-c2cn3nccc3c(-c3cnn([C@]4(CC#N)C[C@@H](C#N)C4)c3)n2)cn1 | – | healthy humans fasted, plasma | oral, 100 mg single dose, geometric mean | – | dose-normalised AUC(0-t) | 13.8 ng·h/mL/mg |
| CCc1cc(C(=O)NC)c2nccc(N3CCc4c(cc(Cn5ccnc5)cc4-c4cn(C)nc4C(F)(F)F)C3=O)c2c1 | – | Sprague Dawley rat | oral, 100 mg/kg once daily, 7 days | baseline: vehicle | change in ALB | 0.4% |
| Cc1cc(-c2nccc3c2ccn3CC(=O)Nc2ccc(-c3cnccn3)cn2)ccn1 | item: Cmax | human, plasma | oral, 15 mg once daily | baseline: day 16 over day 1 | accumulation ratio | 1.08 |
| C[C@@H](O)[C@H](NC(=O)c1ccc(-c2ccc(Br)cc2)cc1)C(=O)NCC1(C)NC(=O)NC1=O (stereo partly drawn) | – | octanol/buffer | pH 11 | – | logP | 0.99 |
| O=C(COc1ccc(Cl)cc1)NC12CC(c3nnc([C@H]4C[C@@H](OC(F)(F)F)C4)o3)(C1)C2 | item: Epistaxis | healthy humans, both sexes | oral, dose not given, single ascending dose, fasted | baseline: subjects | treatment-emergent adverse events | 5.6% |
| CCNCCNC(=O)c1c(C)[nH]c(/C=C2\C(=O)Nc3ccc(F)cc32)c1C | – | human, serum | 25 mg maintenance dose | – | serum concentration | 17.5 ng/mL |
| C[C@H]1CO[C@@H]2Cn3cc(C(=O)NCc4ccc(F)cc4F)c(=O)c(O)c3C(=O)N12 | – | human patients, all-treated set | intramuscular, dose not given, long-acting injection with rilpivirine LA, median | – | time to injection-site reaction resolution | 4 days |
| CCN1CCN(Cc2ccc(NC(=O)c3ccc(C)c(NC(=O)c4cncc(-c5cccs5)c4)c3)cc2C(F)(F)F)CC1 | – | C57BL/6 mice, epithelial lining fluid | intraperitoneal, 10 mg/kg | – | Cmax | 1490 ng/mL |
| COc1ccccc1NC(=O)CSc1nnc(-c2ccc([N+](=O)[O-])cc2)n1-c1ccccc1 | – | octanol/buffer | pH 11, known kinase inactives set | – | logP | 3.69 |
| CCCn1cc(C)c2c(=O)[nH]c(-c3cc(S(=O)(=O)N4CCN(CC)CC4)ccc3OCC)nc21 | – | human | concentration not given, treatment-emergent adverse event | – | priapism | 61.1% |
| CC(C)NCCCC[C@@H]1NC(=O)[C@H](Cc2ccc(O)cc2)NC(=O)[C@H](Cc2ccccc2)NC(=O)CC[C@H](C(=O)N[C@@H](CCCCNC(C)C)C(=O)N[C@@H](CCCCNC(=O)[C@H](CCC(=O)O)NC(=O)[C@H](CCC(=O)O)NC(=O)[C@H](CCC(=O)O)NC(=O)CN2CCN(CC(=O)O)CCN(CC(=O)O)CCN(CC(=O)O)CC2)C(N)=O)NC(=O)CNC(=O)[C@H](Cc2ccc3ccccc3c2)NC(=O)[C@@H](CCCNC(=N)N)NC1=O [gallium-68 labelled] | – | mouse with Daudi xenograft, stomach | intravenous, 2 h | – | tissue uptake | 0.07 %ID/g |
| CN(CC#N)C(=O)C[C@H](Nc1nc2ccccc2[nH]1)c1cccc(C(F)(F)F)c1 | – | human | intravenous infusion, 4 mg/kg, 1 mg/mL formulation | – | steady-state volume of distribution | 52 ± 6.49 L |

Excerpt of the above:
| SMILES | test | system | setting | how to read | measurement | value |
| --- | --- | --- | --- | --- | --- | --- |
| CCNCCNC(=O)c1c(C)[nH]c(/C=C2\C(=O)Nc3ccc(F)cc32)c1C | – | human, serum | 25 mg maintenance dose | – | serum concentration | 17.5 ng/mL |
